Measurements collected from several papers.
Parts stem from different laboratories: compare values within a part only. Changes are numbered by the printed parent chain.

Sample 1
Target: RNA binding protein fox-1 homolog 2, RRM domain, GST-SBP tag (RBFOX2, Homo sapiens, UniProt O43251-10, residues 100-194)
Method: RNA Bind-n-Seq
Form: RNA
Matrix: in vitro
Tested at: 365 nM
Setting: natural RNA segment, single round, ends assumed
Relative to: no-protein control
Reading: higher = stronger binding
Measurement: RBNS enrichment (R)
All sequences stand within: GGGAGUUCUACAGUCCGACGAUC … UGGAAUUCUCGGGUGCCAA
Target sequence (chain): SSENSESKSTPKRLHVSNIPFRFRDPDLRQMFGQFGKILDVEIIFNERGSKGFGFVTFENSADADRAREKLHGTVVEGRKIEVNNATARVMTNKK
AUGCACUGCUUCCUGUAGUCUUUUAGAAAGUAACUCCAGGACAUCGAAGUGCCCAGAUUUGACUCCUAAGUUCUAGGAGACUGUAGCGCAGGGUCUGUCAACCUUAGCAC: 0.297
CUUAUUUAUUUGGGGGGAAAACUAUACAUUAAAGGACCUUUGUCCUAAAGCUCUCUCCCAGGCCACCUUGUUACUCAUUGGACACGGAGAGGCAUUCAUUGUGAGGUCUA: 0.271
CACACUGACUAUGUCUUUAGGAUUUUAAGUUUAAGUUGUAGCUGCAGAUGGGGGCCUGUGGCUCCCGUUUUCAUUGUAGUAUUUUAUCCCCUGCACCCACUCCCUUCAUA: 0.274
CUAGAAGUUGAGUCUGAGUACAUCAGAGUUUGGCAUUAUUUGCAACAUCCCAGGAAUGAGCUAUAAGACUCCAUUGCUUUCUGGACUUUAGUGACCAGCUGAUCUUCCCU: 0.213
GAUGUCUUCAAAAAAAAAUCAACAUGCAGAAUGGAAUUUGCAAUAAAGGCUUUUCUAAAACUGGCUCUUUCUGCCCAUCUUCCUCUUCACUCCUUCAUAGAAGACAGCAU: 0.365
ACAGUGCAGCAGUGGGUGUGGCCUGACUACAUGUGCUGUUCCAGCCCUGGGUGCCCACUGACACCGACCCCCAGGCAGAGGCCUUUGUCUUCAGCACUCCUGAGAAGUUG: 0.339
UAGAGAGUUGGUCUCUUAUAAACACACGCCGAACCUCACCAUAUGGAGCCAGACAUUGGGAUGCACGCAUGUGAUUGUGUGUGCACGCAUGUGUGUGUGUGCACGCACUG: 1.73
UGCAUAAGGAGCCACUGCUGCCACCACUUUUGGAUUUUAUGGGAGGCUCCUUCAUCGAAUGCUAAACCUUUGAGUAGAGUCUCCCUGGAUCACAUACCAGGUCAGGGAGG: 0.418

Sample 2
Target: Ras GTPase-activating protein-binding protein 1, full length (G3BP1, Homo sapiens, UniProt Q13283)
Chain of UniProt Q13283 (whole entry, looked up): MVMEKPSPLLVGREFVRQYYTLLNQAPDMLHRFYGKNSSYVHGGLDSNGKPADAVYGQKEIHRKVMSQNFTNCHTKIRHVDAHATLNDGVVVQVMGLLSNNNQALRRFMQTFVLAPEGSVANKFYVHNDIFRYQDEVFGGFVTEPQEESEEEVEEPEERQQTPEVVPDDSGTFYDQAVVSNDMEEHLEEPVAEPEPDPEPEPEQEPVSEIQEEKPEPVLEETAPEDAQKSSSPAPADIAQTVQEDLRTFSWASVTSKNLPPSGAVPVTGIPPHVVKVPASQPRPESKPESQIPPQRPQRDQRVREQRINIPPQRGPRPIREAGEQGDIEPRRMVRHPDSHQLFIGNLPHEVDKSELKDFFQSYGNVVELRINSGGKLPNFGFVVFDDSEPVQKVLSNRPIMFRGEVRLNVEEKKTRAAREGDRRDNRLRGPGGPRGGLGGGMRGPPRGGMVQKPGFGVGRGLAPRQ
Method: RNA Bind-n-Seq
Form: RNA
Matrix: in vitro
Tested at: 200 nM
Setting: whole 134-nt RNA, ends assumed
Together with: 150 mM LiCl
Relative to: input library
Reading: higher = stronger binding
Measurement: log2 enrichment
All molecules: 7-deaza-guanosine replaces G
All sequences stand within: GGGAGUUCUACAGUCCGACGAUC … UGGAAUUCUCGGGUGUCAAGG
UGGCCCUGGUGGCAUGCGGGGAGGAAGAGGUGGCCUCAUGGAUCGUGGAGGUCCCGGUGGAAUGUUCAGAGGUGGCCGUGGUGGAGACAG: 0.654
UAACUUUAGAGGAGGAUCUGAUGGAUAUGGCAGUGCACGUGGAUUUGGGGAUGGCUAUAAUGGGUAUGGAGGAGGACCUGGAGGUGGCAA: -0.354
CAAGUCCUGUGCUACACAUCGUAUGUACCGAAUCGGGUGGGAAAAAAAGGGAGGGAAAGUAUUAUGUUACGCCGUUCGGAUCUGCACUUC: -0.0462
UGGCCCUGGUGGCAUGCGGGGAGGAAGAGGUGGCCUCAUGGAUCGUGGUGGUCCCGGUGGUAUGUUCAGAGGUGGCCGUGGUGGAGACAG: -0.117
AAGUCCUGUGCUACACAUCGUAUGUACCGAAUCGGCCCCGGGCCCCGGGCCCCGGGGAAAGUAUUAUGUUACGCCGUUCGGAUCUGCACU: -1.22
CAAGUCCUGUGCUACACAUCGUAUGUACCGAAUCGGGUUUGGGAAAAAGGGUGGGAAAGUAUUAUGUUACGCCGUUCGGAUCUGCACUUC: -0.604
ACCAUGCAGGUGGGCAUCUUUGGGAAGUGGGGCAAGGGGGGGAUAGGGAGGGGGGUAACACUUUGGGAACAGAUGGUCCCAGGUCGUUUC: 0.434
UUGUUCUGGCAUAAACAUAACAUUGAGAAGUCCCUUGCUGAUCUCCCUAAUUUCACUCCCUUUCCGGAUGAGUGGACAGUGGAAGAUAAA: -0.176

Sample 3
Target: CCNB2, cyclin fold, Cln2 fusion (human)
Method: yeast growth competition, sequencing
Matrix: yeast
Setting: weak parent motif
Relative to: not given
Reading: higher = stronger binding
Measurement: normalised enrichment score
Starting sequence: RBL2 docking peptide (human); STTRRRLFVENDS; partner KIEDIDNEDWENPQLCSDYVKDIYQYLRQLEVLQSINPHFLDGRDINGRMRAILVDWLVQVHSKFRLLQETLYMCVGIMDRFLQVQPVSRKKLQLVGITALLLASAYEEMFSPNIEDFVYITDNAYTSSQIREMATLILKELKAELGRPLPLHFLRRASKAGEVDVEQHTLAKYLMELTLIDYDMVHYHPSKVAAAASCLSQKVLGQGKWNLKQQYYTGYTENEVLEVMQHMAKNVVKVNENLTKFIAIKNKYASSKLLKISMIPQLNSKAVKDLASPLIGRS
STTPRRLFVENDS [R4P]: -0.509
STTRRRLFTENDS [V9T]: 0.601
STDRRRLFVENDS [T3D]: 0.154
STTRRRLFVANDS [E10A]: 0.316
STTRRRLFYENDS [V9Y]: 0.564
STTRCRLFVENDS [R5C]: 0.11
STTRRRKFVENDS [L7K]: 0.0648
STTERRLFVENDS [R4E]: -0.194

Further values, each from its own experiment
PhoQ, residues 284 288 289 292 302 303 AGHLVA  fold induction (PhoP, residues 12 14 15 18 19 HEGLL (Escherichia coli, UniProt P23836); Sort-seq, refers to: YFP reporter; E. coli; PhoQ-PhoP variant library, together with: 10 µM Mg2+; relative to: high Mg2+ state, higher = stronger signaling): 1.99
